Experimental data from different studies.
Parts stem from different laboratories: compare values within a part only. Changes are numbered by the printed parent chain.

Study 1
Target: Ras GTPase-activating protein-binding protein 1, full length (G3BP1, Homo sapiens, UniProt Q13283)
UniProt Q13283, sequence (whole entry, looked up): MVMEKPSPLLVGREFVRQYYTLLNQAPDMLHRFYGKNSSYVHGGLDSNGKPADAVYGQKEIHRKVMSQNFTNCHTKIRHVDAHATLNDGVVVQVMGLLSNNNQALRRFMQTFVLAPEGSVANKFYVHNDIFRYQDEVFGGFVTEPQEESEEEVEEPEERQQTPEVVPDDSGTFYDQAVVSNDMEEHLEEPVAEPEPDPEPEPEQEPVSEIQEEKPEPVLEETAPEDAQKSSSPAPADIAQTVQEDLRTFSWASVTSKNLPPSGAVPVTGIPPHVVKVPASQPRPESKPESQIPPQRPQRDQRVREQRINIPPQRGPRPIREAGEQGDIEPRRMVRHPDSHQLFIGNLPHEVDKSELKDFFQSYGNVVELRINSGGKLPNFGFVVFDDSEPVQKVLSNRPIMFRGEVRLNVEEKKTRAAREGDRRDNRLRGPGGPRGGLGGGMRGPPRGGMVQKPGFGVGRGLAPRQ
Technique: RNA Bind-n-Seq
Molecule type: RNA
Medium: in vitro
Tested at: 200 nM
Setting: whole 134-nt RNA, ends assumed
Added: 150 mM LiCl
Reference: input library
Direction: higher = stronger binding
Quantity: log2 enrichment
All molecules: 7-deaza-guanosine replaces G
All sequences stand within: GGGAGUUCUACAGUCCGACGAUC … UGGAAUUCUCGGGUGUCAAGG
GUCCUGUGCUACACAUCGUAUGUACCGAAUCGGAAAAAAAGGUUUUUUUGGAAAAAGGAAAGUAUUAUGUUACGCCGUUCGGAUCUGCAC: -2.41
AGUCCUGUGCUACACAUCGUAUGUACCGAAUCAAAUUUAAAUUUUUUUAAAUUUAAAAAAGUAUUAUGUUACGCCGUUCGGAUCUGCACU: -2.83
CACAGACAACACGCACCCACACAGACACAGAGGGAAGGGGUUGGGAUGGGGACAGAAAGCACAGCAGGGCGGGGUAGGACCCCAGCCCCU: -0.00919
GUCCUGUGCUACACAUCGUAUGUACCGAAUCGGGCCCCCGGGCCCCCGGGGCCCCCGGGAAAGUAUUAUGUUACGCCGUUCGGAUCUGCA: -2.03
AAGUCCUGUGCUACACAUCGUAUGUACCGAAUCGGGGAGGGGAGGGGAAAAAGGGGAAAGUAUUAUGUUACGCCGUUCGGAUCUGCACUU: 0.944
UAACUUUAGAGGAGGAUCUGAUGGAUAUGGCAGUGGACGUGGAUUUGGGGAUGGUUAUAAUGGGUAUGGAGGAGGACCUGGAGGUGGCAA: 0.598
GCAGGAAGUAAAAACAAAUGGAAAUGCUUCGGAUAGUGGCAGGGGUGGGGGUUGCUAAGGAAAGGGUGGGAUGGGAGUGGGUAGAGAGUU: -0.124
UUCCUCAAGUCCUGUGCUACACAUCGUAUGUACCGAAUCGGCGGCGGGCGGAAAGUAUUAUGUUACGCCGUUCGGAUCUGCACUUCCAGC: 0.97
AAGUCCUGUGCUACACAUCGUAUGUACCGAAUCGGGAAAAAGGGAAAGGGAAAGGGAAAGUAUUAUGUUACGCCGUUCGGAUCUGCACUU: -0.00596
GCAGGAAGUAAAAACAAAUAGAAAUGCUUCGGAUAGUGGCAGGGGUGGGGGUUGCUAAGGAAAGGGUGGGAUGGGAGUGGGUAAAGAGUU: -0.266
UCAAGUCCUGUGCUACACAUCGUAUGUACCGAAUCGGGGUUGGGGUUGGUUGGGAAAGUAUUAUGUUACGCCGUUCGGAUCUGCACUUCC: 0.0804

Study 2
Target: Histone acetyltransferase KAT6A, both winged helices, GST fusion (KAT6A, Homo sapiens, UniProt Q92794, residues 1-181)
Technique: protein binding microarray
Molecule type: double-stranded DNA, one strand shown
Medium: in vitro
Tested at: not given
Setting: 8-mer, flanks averaged, mean of 2 arrays, mostly near background
Reference: not given
Direction: higher = stronger binding
Quantity: E-score
Residues (chain): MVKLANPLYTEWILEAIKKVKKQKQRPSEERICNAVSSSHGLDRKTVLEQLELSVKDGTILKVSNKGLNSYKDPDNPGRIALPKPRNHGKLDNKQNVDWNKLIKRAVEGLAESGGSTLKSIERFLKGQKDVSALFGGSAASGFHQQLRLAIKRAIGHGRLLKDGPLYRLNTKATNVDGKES
ATTCCCTC: -0.189
ACTTGCCG: 0.12
AAGAAGCG: 0.127
CCCGCTCA: 0.228
CCCCGAGG: 0.04
CGCGATAA: 0.122
AAATTCTG: -0.0132
ATAGTATA: -0.0416
CAAGCACC: -0.153
AGGCCCCC: -0.0745
AAGGTTAT: -0.133
CACAATAC: -0.0719
CTTACTAA: -0.131
GCCTTTGA: -0.0571
ACGGCAAG: 0.19
CAAACATC: -0.0826
CGCTGTTA: 0.201
CTTGCGCA: 0.287
AACTACGA: -0.0487
CCGGCCTA: 0.0812
CGGTTGCC: 0.155
CCCATGGG: -0.342
AAGTCAGC: -0.107

Study 3
Target: NFE2, bZIP domain (human)
Technique: DHFR protein complementation
Medium: yeast
Setting: single substitutions, most at no-binding floor
Reference: wild-type JUN-FOS pair
Direction: higher = stronger binding
Quantity: binding fitness
Starting sequence: JUN, bZIP domain (human); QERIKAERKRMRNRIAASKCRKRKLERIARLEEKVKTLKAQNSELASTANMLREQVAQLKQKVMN; partner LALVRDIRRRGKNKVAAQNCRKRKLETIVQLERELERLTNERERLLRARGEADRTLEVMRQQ
N42C: -1.4 natural log
S43E: -1.5 natural log
V56H: -1.52 natural log
I28K: -1.51 natural log
A49E: -1.47 natural log
A46T: -1.24 natural log
V35E: -1.46 natural log
K34S: -1.37 natural log
T37S: -1.46 natural log
E33L: -1.42 natural log
S47P: -1.52 natural log
V56K: -1.59 natural log
A40F: -1.54 natural log
E33M: -1.5 natural log
Q41D: -1.26 natural log
A46R: -1.37 natural log
K36W: -1.48 natural log
K36I: -1.49 natural log
Q41T: -1.44 natural log
L52Q: -1.52 natural log
R30L: -1.41 natural log
A29H: -1.39 natural log
E54R: -1.5 natural log
K34W: -1.52 natural log
K36F: -1.41 natural log

Study 4
Target: CCNE2, cyclin fold, Cln2 fusion (human)
Technique: yeast growth competition, sequencing
Medium: yeast
Setting: weak parent motif
Reference: not given
Direction: higher = stronger binding
Quantity: normalised enrichment score
Starting sequence: CDC6 docking peptide (human); TLKGRRLVFDNQL; partner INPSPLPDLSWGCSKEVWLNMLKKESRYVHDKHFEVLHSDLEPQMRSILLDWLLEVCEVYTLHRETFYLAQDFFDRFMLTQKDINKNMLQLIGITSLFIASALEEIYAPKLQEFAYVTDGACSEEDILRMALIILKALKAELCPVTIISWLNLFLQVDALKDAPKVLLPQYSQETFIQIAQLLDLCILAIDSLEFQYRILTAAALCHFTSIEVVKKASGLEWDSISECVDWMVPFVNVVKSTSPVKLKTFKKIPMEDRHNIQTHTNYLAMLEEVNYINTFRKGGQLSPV
T1A: 1.2
D10H: 0.672
G4H: 0.362
F9T: 0.126
V8Q: -0.244
D10E: -0.528
F9G: -0.278
L2R: 1.27
R5G: 0.863
F9K: 1.73
L13V: -0.204
Q12C: 0.548
R5H: -0.349
R6P: -0.28
V8L: 0.847
F9A: -0.254
K3I: 1.26
N11D: 0.11
R6A: -0.0177
D10K: 0.24
N11P: 0.897
L13Y: 1.65
F9V: -0.016
G4N: 0.702

Study 5
Target: ABI1, truncated, D143A, DHFR fusion (Arabidopsis thaliana)
Technique: DHFR PCA, deep sequencing
Medium: yeast
Setting: methotrexate growth selection, single substitutions
Added: (+)-ABA 58 µM
Reference: wild-type fitted maximum
Direction: higher = stronger binding
Quantity: relative binding score
Starting sequence: PYL1, truncated, DHFR fusion (Arabidopsis thaliana); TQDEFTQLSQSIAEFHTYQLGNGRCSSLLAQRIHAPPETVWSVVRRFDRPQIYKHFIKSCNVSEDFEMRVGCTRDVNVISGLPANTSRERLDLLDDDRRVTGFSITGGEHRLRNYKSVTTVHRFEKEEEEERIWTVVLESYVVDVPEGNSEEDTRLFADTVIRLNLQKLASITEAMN; partner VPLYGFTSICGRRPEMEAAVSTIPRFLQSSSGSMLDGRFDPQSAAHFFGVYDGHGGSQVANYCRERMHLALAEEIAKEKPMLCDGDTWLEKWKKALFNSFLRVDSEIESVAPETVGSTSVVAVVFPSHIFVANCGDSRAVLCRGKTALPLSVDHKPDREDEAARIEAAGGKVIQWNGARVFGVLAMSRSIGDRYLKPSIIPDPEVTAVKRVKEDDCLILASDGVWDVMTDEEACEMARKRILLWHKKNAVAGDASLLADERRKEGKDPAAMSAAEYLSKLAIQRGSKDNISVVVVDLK
L29Y: 28.1%
L112F: 76.2%
T1R: 84.3%
S42T: 77.6%
L169W: 1.45%
V100K: -2.94%
R46V: 45.3%
A13Q: 91.6%
P146W: 4.45%
D153G: 17.5%
V70K: 63.6%
Q19T: 89.4%
A84G: 78.8%
L164S: 85%
K116D: -3.69%
H122D: 57.4%
N85L: 83.5%
P83H: 8.75%
V142W: 34.7%
L91D: -11.9%
T1H: 94.2%
V145C: 71.2%
E131R: 93.8%

A few entries again (study 4):
V8Q: -0.244
D10E: -0.528
F9G: -0.278
L2R: 1.27
R5G: 0.863
F9K: 1.73
L13V: -0.204
Q12C: 0.548
R5H: -0.349
R6P: -0.28
V8L: 0.847
F9A: -0.254
K3I: 1.26
N11D: 0.11
R6A: -0.0177
D10K: 0.24
N11P: 0.897
L13Y: 1.65
